{"data": "Measured values pooled from the literature", "target": "Interleukin-1 receptor-associated kinase 1 (IRAK1, Homo sapiens, UniProt P51617)", "note": "Values joined by “and” are separate records of one study, mostly repeats; a detail may differ.", "UniProt P51617, sequence (whole entry, unmodified, looked up)": "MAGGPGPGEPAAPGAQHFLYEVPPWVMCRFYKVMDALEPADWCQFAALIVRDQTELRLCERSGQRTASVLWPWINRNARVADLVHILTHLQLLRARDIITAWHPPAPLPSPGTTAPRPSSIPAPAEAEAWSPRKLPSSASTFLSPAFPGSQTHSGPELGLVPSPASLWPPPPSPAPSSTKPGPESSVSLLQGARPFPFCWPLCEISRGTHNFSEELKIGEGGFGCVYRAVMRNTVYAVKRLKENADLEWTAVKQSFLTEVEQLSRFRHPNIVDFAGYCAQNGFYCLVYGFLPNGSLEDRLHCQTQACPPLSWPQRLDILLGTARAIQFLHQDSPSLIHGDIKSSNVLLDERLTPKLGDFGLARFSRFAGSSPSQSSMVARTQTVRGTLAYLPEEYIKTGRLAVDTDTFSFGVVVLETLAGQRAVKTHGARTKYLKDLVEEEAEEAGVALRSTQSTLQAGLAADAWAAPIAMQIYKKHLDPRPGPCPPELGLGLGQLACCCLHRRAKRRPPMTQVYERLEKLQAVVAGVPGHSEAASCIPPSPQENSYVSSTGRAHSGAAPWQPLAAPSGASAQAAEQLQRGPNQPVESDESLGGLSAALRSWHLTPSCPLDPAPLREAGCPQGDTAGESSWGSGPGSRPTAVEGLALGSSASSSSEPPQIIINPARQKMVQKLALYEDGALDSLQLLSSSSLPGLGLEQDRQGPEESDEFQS"}
{"SMILES": "O=C=[N][Ru-4]123([n]4c5ccc(O)cc5c5c6c(c7cc(F)c[n+]1c7c54)C(=O)NC6=O)[S+]1CC[S+]2CC[S+]3CC1 (centres unmarked)", "assay": "enzyme activity", "setting": "100 nM, human enzyme, with: 10 µM ATP", "scale": "baseline: untreated", "endpoint": "remaining activity", "value": "97%"}
{"SMILES": "Cc1cnc2nc1Nc1cccc(c1)COC/C=C/COCc1cc(ccc1OCCN1CCOCC1)N2", "assay": "binding", "setting": "0.1 µM", "endpoint": "remaining binding", "value": "39%"}
{"SMILES": "COC(=O)[C@@]1(C)C=C(C(=O)Nc2cccc(C(=O)Nc3ccc(Nc4nccc(-c5cccnc5)n4)c(C)c3)c2)C(=O)CC1", "assay": "binding, competition with immobilised ligand", "setting": "1 µM", "endpoint": "remaining binding", "value": "39%"}
{"SMILES": "Cc1cccc(O[C@H]2CCC[C@@H](C(C)CNCc3ccncc3)C2)c1 (relative stereo)", "assay": "enzyme activity, inhibitor", "setting": "1 µM", "endpoint": "inhibition", "value": "-5%"}
{"SMILES": "COc1cc(Nc2nc(C)cc(-c3cnn4nc(OC)ccc34)n2)cc(C(F)(F)F)c1", "assay": "inhibitor", "setting": "1 µM", "scale": "baseline: control", "endpoint": "remaining activity", "value": "91%"}
{"SMILES": "COCC12C(=O)NC3C4(C(OC)CC1O)C1CC5(O)C(OC)C(O)C(OC(C)=O)(C1C5OC(=O)c1ccccc1)C3(O)C(OC)C24 (centres unmarked)", "assay": "kinase activity, inhibitor, ProQinase kinase profiling", "setting": "25 µM", "scale": "baseline: control", "endpoint": "remaining activity", "value": "88% and 86%"}
{"SMILES": "C=CC(=O)Nc1cccc(-c2cnc3[nH]cc(C(=O)NC(C)(C)C)c3n2)c1", "assay": "enzyme activity, inhibitor", "setting": "0.1 µM", "endpoint": "inhibition", "value": "-3%"}
{"SMILES": "Cc1ccc(-c2c(/C=C(\\C#N)C(=O)NC(C)C)n(CCCO)c3ncnc(N)c23)cc1", "assay": "cell-free assay, competition with immobilised ligand", "setting": "1 µM", "endpoint": "remaining binding", "value": "98%"}
{"SMILES": "CN1CCN(Cc2ccc(-c3ccc(CO[C@H]4CCC[C@@H]4NC(=O)c4cc(-c5cnn(C)c5)cnc4N)cc3)cc2)CC1", "assay": "enzyme activity, inhibitor", "setting": "0.1 µM", "endpoint": "inhibition", "value": "8%"}
{"SMILES": "CCn1cc(C(=O)O)c(=O)c2c(N)c(F)c(NC3CCCCC3)cc21", "assay": "kinase activity", "setting": "0.1 µM, with: ATP at Km", "endpoint": "inhibition", "value": "-4.5%"}
{"SMILES": "CS(=O)(=O)Nc1cccc(-c2csc3cnc(Nc4ccc(N5CCN(CCCCCOc6cccc7c6C(=O)N(C6CCC(=O)NC6=O)C7=O)CC5)cc4)nc23)c1 (centres unmarked)", "assay": "probe labelling, inhibitor, KiNativ chemoproteomics", "system": "MOLT-4", "setting": "1 µM", "endpoint": "inhibition", "value": "63.6%"}
{"SMILES": "CNC(=O)C1CCN(c2cc(C)c(F)cc2NC(=O)c2ccc(-c3cc(O)ccc3C)c(C)c2)CC1", "assay": "binding, competition with immobilised ligand", "setting": "1 µM", "endpoint": "remaining binding", "value": "85%"}
{"SMILES": "O=C(Cc1ccc(OCc2ccccc2)cc1)NC1(C(=O)O)CCN(C(=O)c2ccc(-c3cccc(Cl)c3)cc2)CC1", "assay": "enzyme activity, inhibitor", "setting": "10 µM", "endpoint": "activity vs control", "value": "103%"}
{"SMILES": "Nc1ncc(-c2cc(-c3cnn(CC(F)(F)F)c3)ncc2F)nc1C(=O)NC1CNCC(F)C1 (centres unmarked)", "assay": "enzyme activity", "setting": "1 µM", "scale": "baseline: DMSO control", "endpoint": "remaining activity", "value": "99.6%"}
{"SMILES": "CCN1CCN(Cc2ccc(C(=O)Nc3ccc(C)c(NCc4cnc5[nH]ccc5c4OC)c3)cc2C(F)(F)F)CC1", "assay": "binding, competition with immobilised ligand", "setting": "1 µM", "endpoint": "remaining binding", "value": "100%"}
{"SMILES": "NC(=O)[C@@H](O)C[C@H]1CCc2sc3ncnc(O[C@H]4CC[C@H](N5CCOCC5)CC4)c3c21", "assay": "enzyme activity, inhibitor", "setting": "10 µM", "endpoint": "inhibition", "value": "83%"}
{"SMILES": "C=CC(=O)N1CCCC(n2c(=O)c3ncccc3n(Cc3ccc(Oc4ccccc4)cc3)c2=O)C1 (centres unmarked)", "assay": "cell-free assay, competition with immobilised ligand", "setting": "1 µM", "endpoint": "remaining binding", "value": "77%"}
{"note": "For quick reference, copied from above:"}
{"SMILES": "NC(=O)[C@@H](O)C[C@H]1CCc2sc3ncnc(O[C@H]4CC[C@H](N5CCOCC5)CC4)c3c21", "assay": "enzyme activity, inhibitor", "setting": "10 µM", "endpoint": "inhibition", "value": "83%"}
{"SMILES": "CN1CCN(Cc2ccc(-c3ccc(CO[C@H]4CCC[C@@H]4NC(=O)c4cc(-c5cnn(C)c5)cnc4N)cc3)cc2)CC1", "assay": "enzyme activity, inhibitor", "setting": "0.1 µM", "endpoint": "inhibition", "value": "8%"}
